# Results gathered from unrelated publications.
# Parts stem from different laboratories: compare values within a part only. Values joined by “and” are separate records of one study, mostly repeats; a detail may differ.
# Sequence of UniProt Q14653 (whole entry, unmodified, looked up): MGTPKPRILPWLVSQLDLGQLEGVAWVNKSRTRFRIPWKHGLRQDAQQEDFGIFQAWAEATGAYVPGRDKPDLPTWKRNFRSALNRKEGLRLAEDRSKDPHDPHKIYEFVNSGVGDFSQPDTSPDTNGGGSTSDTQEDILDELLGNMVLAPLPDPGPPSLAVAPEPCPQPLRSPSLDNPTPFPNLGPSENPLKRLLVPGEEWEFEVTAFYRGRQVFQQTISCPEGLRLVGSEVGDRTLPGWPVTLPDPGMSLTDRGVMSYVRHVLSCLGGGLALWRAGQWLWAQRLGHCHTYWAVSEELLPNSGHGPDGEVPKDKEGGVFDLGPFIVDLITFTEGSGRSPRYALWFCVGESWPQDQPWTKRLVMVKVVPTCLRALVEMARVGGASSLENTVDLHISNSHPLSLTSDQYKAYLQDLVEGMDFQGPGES

# Set 1
# Target: Histone acetyltransferase KAT6A, winged helix 2, GST fusion (KAT6A, Homo sapiens, UniProt Q92794, residues 85-181)
# Technique: protein binding microarray
# Form: double-stranded DNA, one strand shown
# Matrix: in vitro
# Tested at: not given
# Setting: 8-mer, flanks averaged, mean of 2 arrays, mostly near background
# Baseline: not given
# Direction: higher = stronger binding
# Residues (chain): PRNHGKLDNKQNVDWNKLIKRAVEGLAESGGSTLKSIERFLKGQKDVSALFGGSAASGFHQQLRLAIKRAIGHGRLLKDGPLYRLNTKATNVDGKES
Sequence,E-score
CGAGCGAC,0.0541
ATGACTCG,-0.0644
ACCTCGAC,0.114

# Set 2
# Target: Sal-like protein 4, full length isoform A (SALL4, Homo sapiens, UniProt Q9UJQ4, residues 1-1053)
# Sequence of UniProt Q9UJQ4 (whole entry, looked up): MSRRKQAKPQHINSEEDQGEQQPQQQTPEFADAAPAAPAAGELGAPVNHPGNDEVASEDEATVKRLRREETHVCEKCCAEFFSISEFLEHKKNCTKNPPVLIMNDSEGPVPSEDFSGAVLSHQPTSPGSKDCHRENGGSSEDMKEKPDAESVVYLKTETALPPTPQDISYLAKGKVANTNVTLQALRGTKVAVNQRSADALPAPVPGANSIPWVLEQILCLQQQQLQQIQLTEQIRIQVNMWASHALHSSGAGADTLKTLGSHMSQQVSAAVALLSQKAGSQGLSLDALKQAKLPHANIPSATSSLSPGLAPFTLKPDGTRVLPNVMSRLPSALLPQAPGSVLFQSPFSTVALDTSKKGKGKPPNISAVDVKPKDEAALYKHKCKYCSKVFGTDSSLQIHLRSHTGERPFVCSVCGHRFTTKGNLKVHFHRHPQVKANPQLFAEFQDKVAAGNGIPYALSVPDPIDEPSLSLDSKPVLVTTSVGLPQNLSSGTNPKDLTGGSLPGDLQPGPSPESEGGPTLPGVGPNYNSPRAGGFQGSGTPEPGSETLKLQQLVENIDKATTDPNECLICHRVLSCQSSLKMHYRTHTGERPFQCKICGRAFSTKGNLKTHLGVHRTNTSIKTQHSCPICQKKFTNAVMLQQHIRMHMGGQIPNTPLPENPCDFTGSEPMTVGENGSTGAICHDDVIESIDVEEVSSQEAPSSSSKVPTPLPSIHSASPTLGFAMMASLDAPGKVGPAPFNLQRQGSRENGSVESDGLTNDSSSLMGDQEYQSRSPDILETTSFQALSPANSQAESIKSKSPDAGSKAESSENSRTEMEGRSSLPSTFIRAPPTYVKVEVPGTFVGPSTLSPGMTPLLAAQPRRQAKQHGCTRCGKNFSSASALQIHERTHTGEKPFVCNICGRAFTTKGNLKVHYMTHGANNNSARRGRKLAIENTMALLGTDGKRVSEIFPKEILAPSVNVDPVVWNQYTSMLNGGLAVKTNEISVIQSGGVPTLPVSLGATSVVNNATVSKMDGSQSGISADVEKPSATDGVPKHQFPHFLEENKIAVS
# Technique: universal PBM
# Form: double-stranded DNA, one strand shown
# Matrix: in vitro
# Tested at: 600 nM
# Setting: 8-mer, flanks averaged, mean of replicates
# Direction: higher = stronger binding
Sequence,E-score
CGTGCCTA,-0.167
CCCCCGCC,-0.364
CCGAATAG,-0.0305
AATATCCG,0.262

# Single results of other studies
# IRF7 S471D/S472D/S475D/S476D/S477D/S483D/S484D/S487D full length, phosphomimetic: Interferon regulatory factor 7, full length, phosphomimetic (IRF7, Homo sapiens, UniProt Q92985, residues 1-503, S471D/S472D/S475D/S476D/S477D/S483D/S484D/S487D)
# Sequence of UniProt Q92985 (whole entry, unmodified, looked up): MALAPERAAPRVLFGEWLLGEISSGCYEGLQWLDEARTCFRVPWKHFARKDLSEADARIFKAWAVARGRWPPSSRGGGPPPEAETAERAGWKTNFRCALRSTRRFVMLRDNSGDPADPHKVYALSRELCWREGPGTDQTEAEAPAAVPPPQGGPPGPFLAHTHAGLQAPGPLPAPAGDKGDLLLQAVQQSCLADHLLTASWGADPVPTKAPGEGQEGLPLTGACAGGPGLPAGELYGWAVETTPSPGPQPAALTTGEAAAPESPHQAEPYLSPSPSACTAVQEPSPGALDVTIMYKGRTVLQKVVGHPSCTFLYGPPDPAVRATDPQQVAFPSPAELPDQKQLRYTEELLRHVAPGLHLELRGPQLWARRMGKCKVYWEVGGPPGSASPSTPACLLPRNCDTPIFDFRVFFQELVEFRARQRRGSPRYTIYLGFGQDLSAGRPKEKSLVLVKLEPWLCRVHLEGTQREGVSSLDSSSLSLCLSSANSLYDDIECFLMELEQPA
Substance,target,assay,system,setting,scale,quantity,result
GCCTAGCACTTAGGTCTTCTTATCCTTTAGTGCTAGGTCTTGATTCGCTTGACGCTGCTG,"Interferon regulatory factor 5, full length, phosphomimetic (IRF5, Homo sapiens, UniProt Q13568-2, residues 1-514, K96S/S451D/S453D/S456D/S462D)",protein-binding microarray,"double-stranded DNA, one strand shown, in vitro","250 nM, 60-bp whole probe, together with: salmon DNA 0.4 mg/ml","baseline: random background probes, higher = stronger binding",log fluorescence,0.171 z-score
"PhoQ, residues 284 288 289 292 302 303 ASTSDA","PhoP, residues 12 14 15 18 19 LWHCS (Escherichia coli, UniProt P23836)","Sort-seq, item: YFP reporter",E. coli,"PhoQ-PhoP variant library, together with: 10 µM Mg2+","baseline: high Mg2+ state, higher = stronger signaling",fold induction,15.9 and 25.6
GCCTAGCACGACGATCTCGGTCTCGGGACGTGCTAGGTCTTGATTCGCTTGACGCTGCTG,"Interferon regulatory factor 3, full length, phosphomimetic (IRF3, Homo sapiens, UniProt Q14653, residues 1-427, S386D/S396D/S398D/S402D/T404D/S405D)",protein-binding microarray,"double-stranded DNA, one strand shown, in vitro","2540 nM top, 60-bp whole probe, together with: salmon DNA 0.4 mg/ml","baseline: random background probes, higher = stronger binding",fitted relative affinity,0.555 z-score
GCCTAGCACTTAGATATCAGTATCGCTTAGTGCTAGGTCTTGATTCGCTTGACGCTGCTG,"IRF7 S471D/S472D/S475D/S476D/S477D/S483D/S484D/S487D full length, phosphomimetic",protein-binding microarray,"double-stranded DNA, one strand shown, in vitro","2200 nM top, 60-bp whole probe, together with: salmon DNA 0.4 mg/ml","baseline: random background probes, higher = stronger binding",fitted relative affinity,0.268 z-score
GCCTAGCACGACGGTCTCGGACTGGAGACGTGCTAGGTCTTGATTCGCTTGACGCTGCTG,"IRF7 S471D/S472D/S475D/S476D/S477D/S483D/S484D/S487D full length, phosphomimetic",protein-binding microarray,"double-stranded DNA, one strand shown, in vitro","2200 nM top, 60-bp whole probe, together with: salmon DNA 0.4 mg/ml","baseline: random background probes, higher = stronger binding",fitted relative affinity,-0.45 z-score
